Assay results from different studies.
A part holds a random share of what one study measured. Changes are numbered by the printed parent chain.

Set 1 — method: RNA Bind-n-Seq; form: RNA; matrix: in vitro; tested at: not given; baseline: input RNA pool; direction: higher = stronger binding
Target: RING finger protein unkempt homolog, zinc fingers 1-6, GST-SBP tag (UNK, Homo sapiens, UniProt Q9C0B0, residues 30-357)
Notes: RNA with constant flanks, human-mouse chimeric sites, ends assumed
Construct (chain): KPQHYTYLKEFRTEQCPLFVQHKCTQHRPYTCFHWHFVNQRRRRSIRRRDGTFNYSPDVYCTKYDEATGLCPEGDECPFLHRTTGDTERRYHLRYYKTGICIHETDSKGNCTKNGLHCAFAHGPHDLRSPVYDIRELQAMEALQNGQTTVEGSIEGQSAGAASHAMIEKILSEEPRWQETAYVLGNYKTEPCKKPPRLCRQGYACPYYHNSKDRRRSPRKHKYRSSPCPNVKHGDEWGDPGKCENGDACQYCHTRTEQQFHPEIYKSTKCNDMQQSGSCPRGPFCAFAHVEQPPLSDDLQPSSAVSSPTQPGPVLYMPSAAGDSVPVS
Strand | bound/input enrichment [ratio]
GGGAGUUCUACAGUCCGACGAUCGUAGCUGGGACUACAGAAAUGCUGGUAAUUUCAGUCACUUGCUGAUGACUUCUGAUGUCCCAGCAAAUGUUGGCAUUGUUGACUGCUCUGUGAAGACUUCUGAGGACAUACAGCAGUGGUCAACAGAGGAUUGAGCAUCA | 0.0818
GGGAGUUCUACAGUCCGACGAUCGUGCCCUUCUCGCUGCUGCGGAGCCCGAGCUGGGAACCAUUCCGGGACUGGUACCCUGCACACAGCCGCCUCUUCGACCAGGCCUUCGGGGUGCCCCGGUUGCCCGAGGAGUGGUCGCAGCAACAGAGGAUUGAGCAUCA | 0.0711
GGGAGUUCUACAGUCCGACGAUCAAAGAGAAUGGAGAUGUAAAGAUUUUACUGAAAAGUGGGAAGGAGAAACCAAAAACAAAUAUAGAAGACUUACAAAUUAAAAAGGUAAAGAAGAAAAAGAAAAAGAAACACAAAGAGAAUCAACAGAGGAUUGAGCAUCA | 16.9
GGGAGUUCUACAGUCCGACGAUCGUCAACAGCUGCCUCAACCCCAUCCUCUACGCCUUCCUGGAUGAGAACUUCAAGGCCUGCUUCCGCAAGUUCUGCUGUGCUUCUGCCCUGCGCCGGGACGUGCAGGUGUCUGACCGCGUGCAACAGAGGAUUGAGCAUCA | 0.308
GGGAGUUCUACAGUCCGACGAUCGGGACUGAUUCAUCCCAAGGACAGGCCACCCCAUUUGGUGUUUGGAAUGAUGACAGUAUGGAAGGGCCUAGUCAAAAUGUUGAAGCUGAGUCAAUUCAGGAUGCCAUGAGUAUGGAAGAGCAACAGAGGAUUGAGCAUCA | 0.238
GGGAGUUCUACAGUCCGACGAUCUUACCCGAGAACGAGGAUGAGCUGGAGAGCACCAACAGACGCUAUACCAAGAGGGACUGCAGCACUUUCCUCAGAACUAGUGAGACGGGCAUCGUGGAUCAGGUUAUGGUCACUCUCAACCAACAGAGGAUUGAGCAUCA | 0.26
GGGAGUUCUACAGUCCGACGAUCGAAUCCUACUCAGGCGGAUUUUGCAACACCAAGCUCACAGCAGCAGCAUCUUAGUCACAGUUAGGUAGCUUUAGGGCUCUGUGGCCAGGGUUUUAUUCACAUGCAGGUUUGGAAAAUGUACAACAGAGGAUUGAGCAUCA | 1.44
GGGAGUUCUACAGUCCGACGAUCCAACAGAGUCUAGGAUGGGUUCAUUACAUGAUUCAUGAGCCAGAACCGCAUAUUCUUCUCUUUAGACGACCUCUUCCAAAAGAUCAACAAAAAUGAAGUGCAGCUGGGAUCAUCUAAUCUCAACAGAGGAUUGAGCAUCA | 0.266

Set 2 — method: RNAcompete; form: RNA; matrix: in vitro; tested at: 20 nM; notes: 7-mer, probes averaged, single round; baseline: mean of 7-mers; direction: higher = stronger binding
Target: PABPC1L2, full length, GST fusion (mouse, UniProt A0ABA7IW68)
Construct (chain): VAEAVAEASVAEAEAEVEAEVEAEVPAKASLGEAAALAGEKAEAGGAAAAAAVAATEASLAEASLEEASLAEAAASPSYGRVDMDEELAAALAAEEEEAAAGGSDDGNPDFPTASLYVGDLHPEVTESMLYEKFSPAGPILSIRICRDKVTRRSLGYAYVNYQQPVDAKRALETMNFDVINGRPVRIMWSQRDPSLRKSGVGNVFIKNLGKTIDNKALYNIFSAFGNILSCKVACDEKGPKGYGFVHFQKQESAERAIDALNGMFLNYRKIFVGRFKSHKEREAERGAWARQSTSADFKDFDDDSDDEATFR
Strand | 7-mer Z-score
UGUGCGA | -0.0718
UGUCAAG | -0.311
ACACCUG | -0.19
AGGCGCC | -0.248
GACCCUU | -0.244
UUCAUCC | -0.485
UGGAACA | 0.26
GCGCGAG | -0.307

Set 3 — method: RNA Bind-n-Seq; form: RNA; matrix: in vitro; tested at: 1 µM; notes: whole 134-nt RNA, ends assumed; added: 150 mM KCl; baseline: input library; direction: higher = stronger binding
Target: Ras GTPase-activating protein-binding protein 1, C-terminal RGG region (G3BP1, Homo sapiens, UniProt Q13283)
Chain of UniProt Q13283 (whole entry, looked up): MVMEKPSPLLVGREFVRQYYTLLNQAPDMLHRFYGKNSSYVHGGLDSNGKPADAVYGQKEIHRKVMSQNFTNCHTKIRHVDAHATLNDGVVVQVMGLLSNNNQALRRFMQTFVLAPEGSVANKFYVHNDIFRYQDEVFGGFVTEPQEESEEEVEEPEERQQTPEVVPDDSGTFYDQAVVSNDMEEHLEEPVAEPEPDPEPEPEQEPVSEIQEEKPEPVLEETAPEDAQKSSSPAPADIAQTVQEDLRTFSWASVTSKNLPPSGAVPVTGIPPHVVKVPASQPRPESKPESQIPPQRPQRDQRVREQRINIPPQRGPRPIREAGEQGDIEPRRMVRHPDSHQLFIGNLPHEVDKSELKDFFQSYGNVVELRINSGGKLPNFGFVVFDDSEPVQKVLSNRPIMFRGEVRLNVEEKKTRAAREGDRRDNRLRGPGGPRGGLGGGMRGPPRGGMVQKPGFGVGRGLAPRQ
Strand | log2 enrichment
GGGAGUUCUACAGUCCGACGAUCAGUCCUGUGCUACACAUCGUAUGUACCGAAUCGGGAAAAAGGGAAAAAGGGAAAAAGGAAAGUAUUAUGUUACGCCGUUCGGAUCUGCACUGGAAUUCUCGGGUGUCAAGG | -1.77
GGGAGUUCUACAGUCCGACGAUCUGGCCCUGGUGGCAUGCGGGGAGGAAGAGGUGGCCUCAUGGAUCGUGGUGGUCCCGGUGGAAUGUUCAGAGGUGGCCGUGCUGGAGACAGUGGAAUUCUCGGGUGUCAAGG | 1.98
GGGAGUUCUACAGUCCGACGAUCUCAAGUCCUGUGCUACACAUCGUAUGUACCGAAUCGGGGAAGGAAGGGAAGGGGAAAGUAUUAUGUUACGCCGUUCGGAUCUGCACUUCCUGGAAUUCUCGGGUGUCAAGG | -0.33
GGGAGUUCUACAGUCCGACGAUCUCCUGUGCUACACAUCGUAUGUACCGAAUCAAAUUUUUAAAUUUUUUUAAACCCCCAAAAAAGUAUUAUGUUACGCCGUUCGGAUCUGCAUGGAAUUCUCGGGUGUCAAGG | -0.616
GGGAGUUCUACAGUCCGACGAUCCCUCAAGUCCUGUGCUACACAUCGUAUGUACCGAAUCGGAAGGGGAAGGAAGGAAAGUAUUAUGUUACGCCGUUCGGAUCUGCACUUCCAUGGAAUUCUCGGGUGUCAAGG | -1.4
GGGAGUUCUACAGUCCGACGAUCGUCCUGUGCUACACAUCGUAUGUACCGAAUCGGGUGGGAAAAAAAGGGAAAAAAAGGGAAAGUAUUAUGUUACGCCGUUCGGAUCUGCACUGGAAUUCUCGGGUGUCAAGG | -0.0403
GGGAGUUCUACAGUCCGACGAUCUCCUGUGCUACACAUCGUAUGUACCGAAUCGGGGCCCCCCGGCCCCCCGGGCCCCCCGGAAAGUAUUAUGUUACGCCGUUCGGAUCUGCAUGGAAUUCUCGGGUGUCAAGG | -0.664
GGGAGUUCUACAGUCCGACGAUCUCCUGUGCUACACAUCGUAUGUACCGAAUCGGCCCCCCCGGCCCCCCCGGGCCCCCCCGGAAAGUAUUAUGUUACGCCGUUCGGAUCUGCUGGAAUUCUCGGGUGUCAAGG | -0.588

Further values, each from its own experiment
Parent: PafA, mature enzyme, eGFP fusion (Elizabethkingia meningoseptica, UniProt Q9KJX5); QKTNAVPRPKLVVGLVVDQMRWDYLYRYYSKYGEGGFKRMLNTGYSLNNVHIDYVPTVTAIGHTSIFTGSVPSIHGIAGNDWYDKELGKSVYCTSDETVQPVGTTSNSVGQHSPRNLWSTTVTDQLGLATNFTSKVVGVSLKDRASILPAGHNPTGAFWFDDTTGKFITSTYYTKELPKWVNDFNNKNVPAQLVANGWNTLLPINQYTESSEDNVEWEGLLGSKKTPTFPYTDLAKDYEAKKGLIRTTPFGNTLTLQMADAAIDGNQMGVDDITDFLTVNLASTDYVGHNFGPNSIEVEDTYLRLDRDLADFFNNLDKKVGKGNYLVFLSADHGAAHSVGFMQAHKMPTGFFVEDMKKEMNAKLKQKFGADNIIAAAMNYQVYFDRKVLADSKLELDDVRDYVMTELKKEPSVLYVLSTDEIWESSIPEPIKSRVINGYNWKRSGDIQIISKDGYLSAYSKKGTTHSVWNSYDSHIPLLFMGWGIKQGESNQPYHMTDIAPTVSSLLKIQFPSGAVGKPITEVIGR
Substitution | target | test | system | setting | how to read | measurement | value
G88A | tungstate, free oxyanion | microfluidic competitive inhibition | in vitro, cell-free expressed | not given, derived from inhibition constants, unchanged parent 2230 nM | lower = stronger binding | oxyanion analog dissociation constant | 2300 nM
